# Measured values gathered from unrelated publications.
# Lines come from different studies, so protocols differ. ± gives the spread as reported.
# BRAP ZnF-UBD domain: BRCA1-associated protein, ZnF-UBD domain (BRAP, Homo sapiens, UniProt Q7Z569)
# Chain of UniProt Q7Z569 (whole entry, looked up): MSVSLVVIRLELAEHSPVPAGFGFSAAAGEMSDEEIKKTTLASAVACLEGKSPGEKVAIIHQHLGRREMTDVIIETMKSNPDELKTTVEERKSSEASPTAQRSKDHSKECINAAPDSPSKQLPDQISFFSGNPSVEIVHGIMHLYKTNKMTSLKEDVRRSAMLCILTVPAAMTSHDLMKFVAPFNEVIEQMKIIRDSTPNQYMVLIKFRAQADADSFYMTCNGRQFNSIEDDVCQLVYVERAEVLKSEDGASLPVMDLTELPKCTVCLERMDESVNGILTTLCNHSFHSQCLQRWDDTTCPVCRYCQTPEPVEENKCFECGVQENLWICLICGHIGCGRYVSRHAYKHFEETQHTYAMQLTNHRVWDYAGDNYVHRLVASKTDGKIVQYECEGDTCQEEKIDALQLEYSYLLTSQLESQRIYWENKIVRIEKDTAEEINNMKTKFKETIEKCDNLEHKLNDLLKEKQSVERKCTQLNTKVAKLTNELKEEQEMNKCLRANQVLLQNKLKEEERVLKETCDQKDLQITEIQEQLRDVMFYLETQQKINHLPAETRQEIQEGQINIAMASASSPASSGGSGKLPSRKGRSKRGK
# HDAC4: Histone deacetylase 4 (HDAC4, Homo sapiens, UniProt P56524)
# Chain of UniProt P56524 (whole entry, looked up): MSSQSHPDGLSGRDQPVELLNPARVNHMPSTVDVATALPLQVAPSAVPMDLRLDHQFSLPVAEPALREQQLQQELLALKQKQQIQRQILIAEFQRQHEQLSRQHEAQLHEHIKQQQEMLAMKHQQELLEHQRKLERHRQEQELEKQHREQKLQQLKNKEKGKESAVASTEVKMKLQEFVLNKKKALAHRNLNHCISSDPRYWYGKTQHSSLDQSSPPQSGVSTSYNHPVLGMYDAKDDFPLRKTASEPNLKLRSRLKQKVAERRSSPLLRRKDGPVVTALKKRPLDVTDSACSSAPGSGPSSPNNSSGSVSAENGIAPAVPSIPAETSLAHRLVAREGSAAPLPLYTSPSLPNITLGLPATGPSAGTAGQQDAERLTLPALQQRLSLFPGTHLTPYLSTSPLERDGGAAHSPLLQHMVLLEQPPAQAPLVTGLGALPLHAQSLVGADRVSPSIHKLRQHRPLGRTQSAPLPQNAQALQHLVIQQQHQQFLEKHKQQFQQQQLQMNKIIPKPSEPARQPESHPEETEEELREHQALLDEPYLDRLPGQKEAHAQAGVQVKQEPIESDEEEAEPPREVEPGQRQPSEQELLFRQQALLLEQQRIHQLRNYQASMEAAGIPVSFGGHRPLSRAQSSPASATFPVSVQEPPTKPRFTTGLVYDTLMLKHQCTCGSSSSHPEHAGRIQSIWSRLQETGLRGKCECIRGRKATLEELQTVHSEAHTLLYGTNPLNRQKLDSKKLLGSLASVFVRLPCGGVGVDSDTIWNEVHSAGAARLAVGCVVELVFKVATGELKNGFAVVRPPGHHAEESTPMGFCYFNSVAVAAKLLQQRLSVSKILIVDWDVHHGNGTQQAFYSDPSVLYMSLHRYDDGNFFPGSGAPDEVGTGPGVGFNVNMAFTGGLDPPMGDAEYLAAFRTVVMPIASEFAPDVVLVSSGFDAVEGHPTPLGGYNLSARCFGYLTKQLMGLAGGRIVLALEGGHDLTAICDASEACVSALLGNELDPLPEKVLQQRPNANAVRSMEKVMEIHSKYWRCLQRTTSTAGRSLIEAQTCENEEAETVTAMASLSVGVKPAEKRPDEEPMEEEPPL
# gtr1 with Gtr2: GTP-binding protein gtr1, with Gtr2 (gtr1, Schizosaccharomyces pombe, UniProt O74824)
# Chain of UniProt O74824 (whole entry, looked up): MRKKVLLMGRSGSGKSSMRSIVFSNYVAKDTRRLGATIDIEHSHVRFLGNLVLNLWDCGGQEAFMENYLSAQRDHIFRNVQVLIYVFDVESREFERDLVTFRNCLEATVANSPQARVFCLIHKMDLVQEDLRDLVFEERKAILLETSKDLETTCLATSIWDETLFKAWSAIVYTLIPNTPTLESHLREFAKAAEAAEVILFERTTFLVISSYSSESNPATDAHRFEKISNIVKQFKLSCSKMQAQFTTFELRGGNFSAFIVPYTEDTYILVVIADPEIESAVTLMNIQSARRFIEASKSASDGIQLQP
# Chain of UniProt P40337 (whole entry, looked up): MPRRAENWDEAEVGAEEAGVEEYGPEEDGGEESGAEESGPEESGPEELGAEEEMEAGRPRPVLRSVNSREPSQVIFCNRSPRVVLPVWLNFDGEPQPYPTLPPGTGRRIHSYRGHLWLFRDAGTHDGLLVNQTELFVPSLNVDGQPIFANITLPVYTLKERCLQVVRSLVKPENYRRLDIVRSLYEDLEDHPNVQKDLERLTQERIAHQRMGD
# Chain of UniProt P08183 (whole entry, looked up): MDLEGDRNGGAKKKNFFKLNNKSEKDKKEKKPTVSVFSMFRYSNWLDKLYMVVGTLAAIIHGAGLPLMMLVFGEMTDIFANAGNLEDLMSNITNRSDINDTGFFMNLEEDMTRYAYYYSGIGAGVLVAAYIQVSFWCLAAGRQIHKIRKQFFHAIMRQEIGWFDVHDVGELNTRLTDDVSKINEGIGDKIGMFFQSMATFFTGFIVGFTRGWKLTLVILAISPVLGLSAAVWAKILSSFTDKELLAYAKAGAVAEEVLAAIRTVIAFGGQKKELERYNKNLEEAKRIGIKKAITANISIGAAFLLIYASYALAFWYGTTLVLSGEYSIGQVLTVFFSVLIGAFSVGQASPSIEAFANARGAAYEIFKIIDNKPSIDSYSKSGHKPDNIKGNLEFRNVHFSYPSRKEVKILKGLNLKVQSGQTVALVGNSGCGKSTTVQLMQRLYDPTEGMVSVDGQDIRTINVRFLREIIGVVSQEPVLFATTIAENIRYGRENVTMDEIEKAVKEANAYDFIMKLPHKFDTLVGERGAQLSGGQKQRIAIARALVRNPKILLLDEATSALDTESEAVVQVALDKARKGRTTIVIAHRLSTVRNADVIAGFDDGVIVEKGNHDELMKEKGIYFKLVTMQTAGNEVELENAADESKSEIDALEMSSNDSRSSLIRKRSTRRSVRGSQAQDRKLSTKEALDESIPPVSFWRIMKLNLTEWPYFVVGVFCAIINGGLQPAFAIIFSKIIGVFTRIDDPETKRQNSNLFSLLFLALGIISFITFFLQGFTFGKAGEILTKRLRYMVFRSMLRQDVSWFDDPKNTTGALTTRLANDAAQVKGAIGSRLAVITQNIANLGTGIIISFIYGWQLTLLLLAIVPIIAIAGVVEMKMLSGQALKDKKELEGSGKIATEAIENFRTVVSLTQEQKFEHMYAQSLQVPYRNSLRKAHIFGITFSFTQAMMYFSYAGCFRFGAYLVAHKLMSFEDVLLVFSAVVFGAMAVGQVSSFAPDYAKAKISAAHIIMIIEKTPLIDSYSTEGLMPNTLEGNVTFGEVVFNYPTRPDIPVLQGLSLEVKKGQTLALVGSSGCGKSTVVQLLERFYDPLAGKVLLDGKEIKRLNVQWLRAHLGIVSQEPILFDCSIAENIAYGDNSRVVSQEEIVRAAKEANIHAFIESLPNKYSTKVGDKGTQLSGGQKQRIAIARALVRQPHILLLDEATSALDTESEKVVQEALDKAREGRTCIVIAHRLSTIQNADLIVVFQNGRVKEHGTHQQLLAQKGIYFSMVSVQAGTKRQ
# Chain of UniProt Q06520 (whole entry, looked up): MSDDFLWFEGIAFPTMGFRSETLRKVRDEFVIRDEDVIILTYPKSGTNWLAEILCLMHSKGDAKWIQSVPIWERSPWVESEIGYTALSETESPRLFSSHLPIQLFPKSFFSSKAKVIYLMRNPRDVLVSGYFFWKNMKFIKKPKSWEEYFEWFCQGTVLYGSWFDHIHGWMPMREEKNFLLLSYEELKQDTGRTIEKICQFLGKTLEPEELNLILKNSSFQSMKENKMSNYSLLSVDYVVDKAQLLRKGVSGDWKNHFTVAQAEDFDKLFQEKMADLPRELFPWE
# Chain of UniProt P22557 (whole entry, unmodified, looked up): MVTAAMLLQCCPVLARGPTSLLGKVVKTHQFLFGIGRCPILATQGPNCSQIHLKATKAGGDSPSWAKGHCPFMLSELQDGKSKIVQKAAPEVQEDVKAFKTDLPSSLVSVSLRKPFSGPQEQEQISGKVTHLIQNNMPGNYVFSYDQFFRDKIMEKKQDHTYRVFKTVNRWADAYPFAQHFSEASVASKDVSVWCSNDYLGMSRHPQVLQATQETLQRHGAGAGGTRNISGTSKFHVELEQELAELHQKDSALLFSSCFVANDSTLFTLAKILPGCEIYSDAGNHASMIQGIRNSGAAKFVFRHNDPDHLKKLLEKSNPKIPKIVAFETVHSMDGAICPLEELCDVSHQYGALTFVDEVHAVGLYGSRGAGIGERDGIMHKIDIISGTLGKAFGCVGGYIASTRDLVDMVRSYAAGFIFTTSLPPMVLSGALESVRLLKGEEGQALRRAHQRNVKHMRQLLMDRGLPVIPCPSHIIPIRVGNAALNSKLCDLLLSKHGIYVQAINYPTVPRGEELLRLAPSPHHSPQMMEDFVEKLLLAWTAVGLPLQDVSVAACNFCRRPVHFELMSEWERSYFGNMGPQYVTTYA
# Chain of UniProt Q16774 (whole entry, unmodified, looked up): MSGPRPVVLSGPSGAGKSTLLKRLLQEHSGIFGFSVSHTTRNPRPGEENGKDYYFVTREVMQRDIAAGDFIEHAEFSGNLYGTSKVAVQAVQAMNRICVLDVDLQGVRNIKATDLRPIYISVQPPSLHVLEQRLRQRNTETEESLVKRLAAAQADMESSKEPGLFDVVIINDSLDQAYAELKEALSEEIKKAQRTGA
# Chain of UniProt P33487 (whole entry, looked up): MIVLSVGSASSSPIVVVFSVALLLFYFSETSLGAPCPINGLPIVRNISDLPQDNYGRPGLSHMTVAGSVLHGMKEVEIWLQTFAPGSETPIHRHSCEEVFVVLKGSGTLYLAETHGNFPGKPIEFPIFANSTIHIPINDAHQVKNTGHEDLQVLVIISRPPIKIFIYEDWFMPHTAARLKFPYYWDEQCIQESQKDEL
# Chain of UniProt Q96GI7 (whole entry, looked up): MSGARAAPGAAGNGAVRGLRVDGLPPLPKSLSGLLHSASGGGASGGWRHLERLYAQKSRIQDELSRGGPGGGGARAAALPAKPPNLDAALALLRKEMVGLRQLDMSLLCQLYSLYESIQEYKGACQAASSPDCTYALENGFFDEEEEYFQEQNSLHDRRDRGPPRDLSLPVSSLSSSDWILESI
Structure (SMILES),target,test,system,setting,Kd
O=C(O)CCc1cnn(-c2ccccc2)c1,BRAP ZnF-UBD domain,,,,> 1000 µM
CC(=O)N[C@H](C(=O)N1C[C@H](O)C[C@H]1C(=O)NCc1ccc(-c2scnc2C)cc1)C(C)(C)SCCCCCCNC(=O)C[C@@H]1N=C(c2ccc(Cl)cc2)c2c(sc(C)c2C)-n2c(C)nnc21,"BRD2/VHL, BD2; with VCB (Homo sapiens, UniProt P25440+P40337)",ITC,,"25 °C, PROTAC:Brd2^BD2, ternary",0.078 ± 0.006 µM
CC(C)(COP(=O)(O)OP(=O)(O)OC[C@H]1O[C@@H](n2cnc3c(N)ncnc32)[C@H](O)[C@@H]1OP(=O)(O)O)[C@@H](O)C(=O)NCCC(=O)NCCS,"NAA40 (Homo sapiens, UniProt Q86UY6)","competitor, competition MS pulldown",SW-620 cell lysate,together with: photo-immobilized beads,5.46 µM
N[C@H]1C(O)O[C@H](CO)[C@@H](O)[C@@H]1O (some centres unmarked),"ABCB1 (Homo sapiens, UniProt P08183)",surface plasmon resonance,SMA-extracted MCF-7/ADR membrane liposomes,L1 chip,3090 µM
CCOc1cc(-c2nncn2C)ccc1Nc1ncc2cc(C)nc(NCC(C)(C)C)c2n1,CLK,KINOMEscan,,,0.19 µM
O=C(O)CCC(=O)c1ccc2c(c1)CCC(=O)N2,BRAP ZnF-UBD domain,,,,126 µM
C=CC1=C(C)C2=Cc3c(C=C)c(C)c4[n]3[Fe]([Cl])[n]3c(c(C)c(CCC(=O)O)c3=CC3=NC(=C4)C(C)=C3CCC(=O)O)=CC1=N2,"5-aminolevulinate synthase, erythroid-specific, mitochondrial (Human, UniProt P22557, C555A/C558A/C70A)",,,,0.61 µM
Cc1cc(NC(=O)CCC(=O)O)nn1C,BRAP ZnF-UBD domain,,,,> 1000 µM
[Na+],"Sodium- and chloride-dependent neutral and basic amino acid transporter B(0+), apo form (Slc6a14, Mus musculus, UniProt Q9JMA9)","pre-steady-state charge movement, Hill fit",Xenopus oocytes,,67400 µM
C#Cc1c(F)ccc2cc(O)cc(-c3ncc4c(N5CC6CCC(C5)N6)nc(OC[C@@]56CCCN5C[C@H](F)C6)nc4c3F)c12,"RIT1, GDP-bound (Homo sapiens, UniProt Q92963)","binding, surface plasmon resonance",,,> 30 µM
O=C1OC2(c3ccccc31)c1cc(Br)c(O)c(Br)c1Oc1c2cc(Br)c(O)c1Br,"bznB (Pseudomonas fluorescens, UniProt P51853)",UV-vis absorbance titration,,,98 ± 5 µM
Nc1ncnc2c1ncn2[C@@H]1O[C@H](COP(=O)(O)OP(=O)(O)O)[C@@H](O)[C@H]1O,"GUK1 (Homo sapiens, UniProt Q16774, R137A)","binding, ITC",,"25 °C, together with: GMP",120 ± 20 µM
NC(=O)[C@H]1CCCN1C(=O)CCC(=O)O,BRAP ZnF-UBD domain,,,,462 µM
O=C(O)Cc1c[nH]c2ccccc12,"ERABP1/TMK1, TMK1 extracellular domain (Arabidopsis thaliana, UniProt P33487+P43298)","binding, microscale thermophoresis",,,0.094 µM
Cc1ccc(C(=O)Nc2ccc(S(=O)(=O)O)c3cc(S(=O)(=O)O)cc(S(=O)(=O)O)c23)cc1NC(=O)c1cccc(NC(=O)Nc2cccc(C(=O)Nc3cc(C(=O)Nc4ccc(S(=O)(=O)O)c5cc(S(=O)(=O)O)cc(S(=O)(=O)O)c45)ccc3C)c2)c1,"SLC25A13 (Homo sapiens, UniProt Q9UJS0)","binding, isothermal titration calorimetry",,"pH 6.5, 18 °C, vesicle-reconstituted",7.58 ± 3.17 µM
O=C(O)CCc1cn2cccnc2n1,BRAP ZnF-UBD domain,,,,416 µM
O=C(O)CC(=O)C(=O)O,"Uncharacterized protein (Pelagibacter ubique, UniProt Q4FKX4)",isothermal titration calorimetry,Candidatus Pelagibacter ubique,one-set-of-sites model,0.0096 ± 0.0039 µM
Nc1nc(CC(=O)O)cs1,BRAP ZnF-UBD domain,,,,> 1000 µM
Cc1cc(Nc2ncc3c(n2)N(C)C(=O)N(c2cc(NC(=O)c4cccc(C(F)(F)F)c4)ccc2C)C3)n(C)n1,"TGFBR2 (Homo sapiens, UniProt P37173)",competition binding,,11-point threefold dilution,> 10 µM
O=C(O)Cc1cccnc1,BRAP ZnF-UBD domain,,,,73.9 µM
O=C(NO)c1cnc(NC2(c3ccccc3)CC2)nc1,HDAC4,"inhibitor, competition pulldown",SW620 and MV4-11 lysate,1 h,> 30.2 µM
COc1cc(O)c2c(c1)oc(=O)c1c3cc(O)c(O)cc3oc21,"MAL12 (Saccharomyces cerevisiae S288c, UniProt P53341)",fluorescence quenching,,304 K,4.11 µM
Nc1ncnc2c1ncn2[C@@H]1O[C@H](COP(=O)(O)O)[C@@H](OP(=O)(O)O)[C@H]1O,"SULT2A1 (Homo sapiens, UniProt Q06520)",intrinsic fluorescence titration,,"pH 7.4, without DHEA",0.4 ± 0.06 µM
CCCC(CCC)C(=O)O,HDAC4,"inhibitor, competition pulldown",SW620 and MV4-11 lysate,1 h,> 3020 µM
Nc1nc2c(ncn2[C@@H]2O[C@H](COP(=O)(O)OP(=O)(O)O)[C@@H](O)[C@H]2O)c(=O)[nH]1,gtr1 with Gtr2,"binding, UV crosslinking equilibrium titration",,"4 °C, no 7.4",0.63 µM
COc1cc(Nc2ncc3c(n2)-c2ccc(Cl)cc2C(c2c(F)cccc2OC)=NC3)ccc1C(=O)NCCOCCOCCNC(=O)COc1cccc2c1C(=O)N(C1CCC(=O)NC1=O)C2=O (centres unmarked),"Aurora kinase B, with INCENP (AURKB, Homo sapiens, UniProt Q96GD4)","binding, kinobead competition",MV4-11 cell lysate,,1.73 µM
CCCN1CCN(c2ccc(-c3cncc(Cl)c3N3CCC4(CCNC4=O)CC3)cc2)CC1,"Protein FAM89A (FAM89A, Homo sapiens, UniProt Q96GI7)",SILAC displacement,LS174T-L5 cell lysate,,3.59 µM
Nc1ncnc2c1ncn2[C@@H]1O[C@H](COP(=O)(O)OP(=O)(O)O)[C@@H](O)[C@H]1O,"CKMT1A (Homo sapiens, UniProt P12532)",microscale thermophoresis,,"pH 7.0, WT mutant, no substrate",5 ± 1 µM
O=C(O)CCC(=O)c1cccs1,BRAP ZnF-UBD domain,,,,> 1000 µM
Nc1nc2c(ncn2[C@@H]2O[C@H](COP(=O)(O)OP(=O)(O)OP(=O)(O)O)[C@@H](O)[C@H]2O)c(=O)[nH]1,gtr1 with Gtr2,"binding, UV crosslinking equilibrium titration",,"4 °C, no 7.4",0.07 µM
CCN(CC)Cc1ccc2cc(COC(=O)Nc3ccc(C(=O)NO)cc3)ccc2c1,HDAC4,"inhibitor, competition pulldown",SW620 and MV4-11 lysate,1 h,> 30.2 µM
O=c1ccn([C@@H]2O[C@H](COP(=O)(O)OP(=O)(O)O)[C@@H](O)[C@H]2O)c(=O)[nH]1,"ABO (Homo sapiens, UniProt P16442, G235S/G268A/L266M/R176G/W181M)",methyl-TROSY NMR titration lineshape,,mutant presaturated with H-disaccharide,486 ± 7 µM
